Published values pooled from the literature.
Numbered parts are unrelated; each lists some results of a single study. Changes are numbered by the printed parent chain.

Block 1 — technique: RNA Bind-n-Seq; molecule type: RNA; matrix: in vitro; concentration: 200 nM; setting: whole 134-nt RNA, ends assumed; with: 150 mM KCl; reference: input library; direction: higher = stronger binding
Target: Ras GTPase-activating protein-binding protein 1, full length (G3BP1, Homo sapiens, UniProt Q13283)
Sequence of UniProt Q13283 (whole entry, looked up): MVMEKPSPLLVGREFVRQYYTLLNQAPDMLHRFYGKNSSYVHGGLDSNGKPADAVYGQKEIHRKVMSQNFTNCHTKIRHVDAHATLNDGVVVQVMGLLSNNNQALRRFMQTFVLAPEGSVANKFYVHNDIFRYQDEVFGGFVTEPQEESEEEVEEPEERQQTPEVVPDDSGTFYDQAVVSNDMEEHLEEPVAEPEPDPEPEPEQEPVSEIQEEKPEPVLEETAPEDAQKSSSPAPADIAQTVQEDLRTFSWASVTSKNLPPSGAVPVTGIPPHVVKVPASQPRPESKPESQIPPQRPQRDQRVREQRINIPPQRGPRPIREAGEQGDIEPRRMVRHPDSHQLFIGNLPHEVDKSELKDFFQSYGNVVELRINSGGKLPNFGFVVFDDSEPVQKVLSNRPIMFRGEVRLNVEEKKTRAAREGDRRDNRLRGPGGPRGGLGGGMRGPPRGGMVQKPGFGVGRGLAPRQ
Oligonucleotide | log2 enrichment
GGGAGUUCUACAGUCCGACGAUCUCCUGUGCUACACAUCGUAUGUACCGAAUCGGAAAAAAGGGGAAAAAAGGAAAAAAGGGGAAAGUAUUAUGUUACGCCGUUCGGAUCUGCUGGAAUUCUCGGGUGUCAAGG | -0.604
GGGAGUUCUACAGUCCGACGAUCAGUCCUGUGCUACACAUCGUAUGUACCGAAUCAAAUUUAAAUUUAAAUUUUUUUAAAAAAGUAUUAUGUUACGCCGUUCGGAUCUGCACUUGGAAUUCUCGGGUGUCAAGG | -1.73
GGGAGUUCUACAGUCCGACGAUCUUACCGACACCGUAGAACAGAGCAAGAGGAGGAUGAAGAGCUAUUAACAGAAAGCUCCAAAGCAACCAAUGUUUGCACUCGAUUUGAAGAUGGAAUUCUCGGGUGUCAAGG | -0.33
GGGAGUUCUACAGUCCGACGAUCGCAGGAAGUAAAAACAAAUGGAAAUGCUUCGGAUAGUGGCAGGGGUGGGGGUUGCAAAGGAAAGGGUGGGAUGGGAGUGGGUAAAGAGUUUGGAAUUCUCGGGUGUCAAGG | 0.81
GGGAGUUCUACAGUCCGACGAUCUAGGGUUCAGGAUAAGUUUGAGGUGCUGAAUUACACAAGCAUUCCUAUCUUUCUCCCGGAAGUCACCAUUGGAGCUCAUCAGACUGACCGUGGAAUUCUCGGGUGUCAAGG | -0.791
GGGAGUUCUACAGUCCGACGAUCCUCAAGUCCUGUGCUACACAUCGUAUGUACCGAAUCGGUGGAGGAAAAAAAGGAAAGUAUUAUGUUACGCCGUUCGGAUCUGCACUUCCAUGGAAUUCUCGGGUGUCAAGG | -0.481
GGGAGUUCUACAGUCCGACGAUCUCCUGUGCUACACAUCGUAUGUACCGAAUCGGGGCCCCCCGGGGCCCCCCGGCCCCCCGGAAAGUAUUAUGUUACGCCGUUCGGAUCUGCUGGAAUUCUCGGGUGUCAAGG | -0.011
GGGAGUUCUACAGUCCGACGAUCAGUCCUGUGCUACACAUCGUAUGUACCGAAUCGGGAAAAAGGGUUUUUGGGAAAGGGAAAGUAUUAUGUUACGCCGUUCGGAUCUGCACUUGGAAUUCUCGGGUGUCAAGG | -0.431
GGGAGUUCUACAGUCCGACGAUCUCAAGUCCUGUGCUACACAUCGUAUGUACCGAAUCGGGAGGGAAAAAGGGUGGGAAAGUAUUAUGUUACGCCGUUCGGAUCUGCACUUCCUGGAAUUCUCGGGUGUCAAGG | 0.912
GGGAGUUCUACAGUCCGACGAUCAGUCCUGUGCUACACAUCGUAUGUACCGAAUCGGUUUUGGGGUUUUGGGUUUUGGGGAAAGUAUUAUGUUACGCCGUUCGGAUCUGCACUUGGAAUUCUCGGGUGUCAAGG | -0.462
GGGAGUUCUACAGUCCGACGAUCAGUCCUGUGCUACACAUCGUAUGUACCGAAUCGGGGAGGGGAAAGGGGUUUUUGGGGAAAGUAUUAUGUUACGCCGUUCGGAUCUGCACUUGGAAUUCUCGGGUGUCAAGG | 0.296
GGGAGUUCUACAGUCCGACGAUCACCAUGCAGGUGGGCAUCUUUAAAAAGUGGGGCAAGGGGGGGAUAGGGAGGGGGGUAACACUUUGGGAACAGGUGGUCCCAGGUCGUUUCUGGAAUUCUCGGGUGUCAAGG | 1.76
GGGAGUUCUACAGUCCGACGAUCCAAGUCCUGUGCUACACAUCGUAUGUACCGAAUCGGUUUUUGGAAAAAAAGGAGGAAAGUAUUAUGUUACGCCGUUCGGAUCUGCACUUCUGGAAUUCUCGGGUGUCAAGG | -0.847
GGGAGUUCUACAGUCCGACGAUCUGUGCUACACAUCGUAUGUACCGAAUCGGGGUUUUUUUGGGGUUUUUGGGGAAAAAAAGGGGAAAGUAUUAUGUUACGCCGUUCGGAUCUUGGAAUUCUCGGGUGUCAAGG | -0.709

Block 2 — target: CRIPT, C-terminal peptide; technique: DHFR complementation, deep sequencing; matrix: yeast; reference: wild type; direction: higher = weaker binding
Setting: single substitutions, model-inferred values
Starting sequence: ERBIN, PDZ domain 1 (human); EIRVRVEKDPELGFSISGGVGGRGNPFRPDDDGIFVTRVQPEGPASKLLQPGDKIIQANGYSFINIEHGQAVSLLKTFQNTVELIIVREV; partner TKNYKQTSV
Change | binding free energy change [kcal/mol]
F63D | 0.863
F63R | 0.564
G13P | 1.56
E1Y | 0.236
E1N | 0.226
V87N | -0.00595
I55E | 0.499
V90F | -0.0372
E42H | 0.0643
D9C | -0.105
V36Q | 0.947
P41Y | 0.32
G60T | 0.108
I85E | -0.00324
I64W | -0.0943
R3I | -0.207
I85Q | 0.17
F78N | 0.352
F35N | 0.89
I55L | -0.0947
E67V | 0.19
A45P | 0.837
T77A | -0.0436
N80A | -0.00909
T37S | 0.428

Block 3 — technique: DHFR PCA, deep sequencing; matrix: yeast; with: (+)-ABA 0.11 µM; reference: wild-type fitted maximum; direction: higher = stronger binding
Target: ABI1, truncated, D143A, DHFR fusion (Arabidopsis thaliana)
Setting: methotrexate growth selection, single substitutions
Starting sequence: PYL1, truncated, DHFR fusion (Arabidopsis thaliana); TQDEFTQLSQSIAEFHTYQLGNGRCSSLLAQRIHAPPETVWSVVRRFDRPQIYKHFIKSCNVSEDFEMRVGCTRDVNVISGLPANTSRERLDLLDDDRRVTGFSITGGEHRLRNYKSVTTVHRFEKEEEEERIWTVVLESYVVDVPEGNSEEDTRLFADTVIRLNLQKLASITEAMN
Change | relative binding score [%]
T119K | -2.55
L91E | 0.168
D92G | 3.49
S140E | 8.43
E109H | 3.24
S11R | 2.25
S104Y | -7.79
G108V | -7.15
S27T | 1.23
F103L | -3
V145E | 7.82
Q10R | 29.5
K54A | -3.66
F157R | 7.79
F124K | 3.15
R74G | 19.4

Block 4 — target: CCNF, cyclin fold, Cln2 fusion (human); technique: yeast growth competition, sequencing; matrix: yeast; setting: weak parent motif; reference: not given; direction: higher = stronger binding
Starting sequence: E2F8 docking peptide (human); FVPQRKLEVSTED
Change | normalised enrichment score
FVPQRKLAVSTED [E8A] | 0.0937
FVAQRKLEVSTED [P3A] | 0.748
AVPQRKLEVSTED [F1A] | 0.337
FVPQAKAEVSTED [R5A L7A] | -0.579
FVPQRALEVSTED [K6A] | -0.653
FVPQKKLEFSTED [R5K V9F] | 5.15
FVPQRKLEVSTAD [E12A] | 0.271
FVPARKLEVSTED [Q4A] | -0.397
FAPQRKLEVSTED [V2A] | 0.14
FVPQKKLEVSTED [R5K] | -0.125
FVPQRKLEFSTED [V9F] | 6.91

Block 5 — technique: competition protein-binding microarray; molecule type: double-stranded DNA, one strand shown; matrix: in vitro; concentration: 2 µM; with: Cbf1 competitor, 0.05 µM; direction: higher = stronger binding
Target: Phosphate system positive regulatory protein PHO4, full length, GST-tagged (PHO4, Saccharomyces cerevisiae, UniProt P07270, residues 1-312)
Setting: whole 60-bp probe, lowest competitor level
Residues (chain): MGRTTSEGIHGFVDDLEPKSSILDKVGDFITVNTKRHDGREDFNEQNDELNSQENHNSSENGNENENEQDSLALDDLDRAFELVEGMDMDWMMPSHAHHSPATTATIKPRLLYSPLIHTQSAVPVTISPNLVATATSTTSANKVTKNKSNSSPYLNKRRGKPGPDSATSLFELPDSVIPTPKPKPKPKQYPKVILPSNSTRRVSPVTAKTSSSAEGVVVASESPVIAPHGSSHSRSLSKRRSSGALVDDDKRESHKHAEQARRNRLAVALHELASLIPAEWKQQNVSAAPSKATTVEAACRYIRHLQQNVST
Oligonucleotide | fluorescence intensity
TTTCATGGACTTTTTCACGTGGTCGTTGCCATTTGTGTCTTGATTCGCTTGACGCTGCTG | 14400 a.u.
CAAGTTCCTGGCCATCACGTTGCCTTCTCCTTACGAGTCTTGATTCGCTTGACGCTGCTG | 11500 a.u.
AAATTACTAAGTTGCGTAGTGGGTGACGCCGTATGAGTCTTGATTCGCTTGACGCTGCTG | 3970 a.u.
GGTCAAAAGAGAGGAGATGTGACGGGAGCCAAATTGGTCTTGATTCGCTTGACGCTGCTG | 4240 a.u.
AAAGCGGTAATTTGGCGCGTGGGTGCAGATATCTATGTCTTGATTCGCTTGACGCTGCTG | 10900 a.u.
TCTGTGGGTAAATGTCTCGTGCAAAAAGACAGGCTAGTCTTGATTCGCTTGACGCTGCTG | 7670 a.u.
CTTTCCCGATCTTTTCACGTGTCGTTAGCACATTTGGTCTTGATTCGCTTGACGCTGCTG | 14400 a.u.
AAAGCGGTAATTTGTCACCATACTTCACATATCTATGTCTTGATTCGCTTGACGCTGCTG | 3860 a.u.
CGTCCTAGTGATTGCTAGGTGGGTGCCATGAGGAAGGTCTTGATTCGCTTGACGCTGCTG | 6440 a.u.
CAGAATTGTCCGAATCGTGTGACGGAAACAGCCTGTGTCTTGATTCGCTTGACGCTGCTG | 4720 a.u.
AAAGCGGTAATTTGTTTTGTGGGTGCAGATATCTATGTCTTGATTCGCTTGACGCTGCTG | 3780 a.u.
CCGTAGAGGCTTTTGCCCGTGCTTTGAGACAACTGCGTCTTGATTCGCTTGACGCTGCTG | 6950 a.u.
TCTATGGCATGTAGAGTCGTGATGGCTGCTGTACGCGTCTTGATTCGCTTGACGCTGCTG | 5500 a.u.
GATCTTGGATACGACCGTGTGACGCCCGAGACTCTTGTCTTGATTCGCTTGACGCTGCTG | 6160 a.u.
AAAGGTTATATCCATCACGTGACGGATCTGTAAAAGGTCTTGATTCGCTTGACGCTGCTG | 13900 a.u.
TTTAGTAATAATAATGATTTAATTAATGATAGTATAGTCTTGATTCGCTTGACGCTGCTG | 3800 a.u.
AATGATGTGCTTGTCATCGTGGGTAACTTCACCAGCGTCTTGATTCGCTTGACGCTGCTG | 8660 a.u.
CACATCCGGGTTCGTCACACGCGAAAGGCTTCTCAAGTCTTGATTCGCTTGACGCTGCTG | 5510 a.u.

Mixed results
Substance | target | assay | test system | conditions | how to read | quantity | value
PhoQ, residues 284 288 289 292 302 303 SIHLQL | PhoP, residues 12 14 15 18 19 QYCSL (Escherichia coli, UniProt P23836) | Sort-seq, refers to: YFP reporter | E. coli | PhoQ-PhoP variant library, with: 10 µM Mg2+ | reference: high Mg2+ state, higher = stronger signaling | fold induction | 5.31

Some of these lines once more (block 2):
Change | binding free energy change [kcal/mol]
E67V | 0.19
P41Y | 0.32
A45P | 0.837
R3I | -0.207
I85Q | 0.17
I85E | -0.00324
